# Published values pooled from the literature.
# Compare with care: the assays were run in different laboratories. Numbers after ± are the reported error.
SMILES,test,test system,conditions,measurement,result
CC(C)c1nc(N(C)S(C)(=O)=O)nc(-c2ccc(F)cc2)c1/C=C/[C@@H](O)C[C@@H](O)CC(=O)O,population pharmacokinetic model,people living with HIV,"oral, bootstrap median",clearance,122 L/h
CC[C@H](C)CCCCC(=O)N[C@@H](CCN)C(=O)N[C@H](C(=O)N[C@@H](CCN)C(=O)N[C@H]1CCNC(=O)[C@H]([C@@H](C)O)NC(=O)[C@H](CCN)NC(=O)[C@H](CCN)NC(=O)[C@H](CC(C)C)NC(=O)[C@@H](Cc2ccccc2)NC(=O)[C@H](CCN)NC1=O)[C@@H](C)O,,ESKD on long-term intermittent haemodialysis,"intravenous infusion, 0.75 mg/kg single dose over 1 h, arithmetic mean",clearance,1.5 L/h
O=C(O)c1cc(O)c(O)c(O)c1,,"chicken Ross broiler, male","intravenous, 0.49 mg/kg",clearance,1.34 ± 0.45 L/h/kg
C[C@@H]1CCC[C@H](n2cnc(-c3cc(Cl)ccc3-n3cc(Cl)nn3)cc2=O)c2cc(ccn2)-c2c(cnn2C(F)F)NC1=O,,"rabbit, male","intravenous, 0.8 mg/kg",clearance,0.402 ± 0.048 L/h/kg
CN[C@H]1C(=O)N[C@@H]2Cc3ccc(cc3)Oc3cc4cc(c3O[C@@H]3O[C@H](C(=O)O)[C@@H](O)[C@H](O)[C@H]3NC(=O)CCCCCCCCC(C)C)Oc3ccc(cc3Cl)[C@@H](O)[C@@H]3NC(=O)[C@H](NC(=O)[C@@H]4NC(=O)[C@@H](NC2=O)c2cc(cc(O)c2Cl)Oc2cc1ccc2O)c1ccc(O)c(c1)-c1c(O[C@H]2O[C@H](CO)[C@@H](O)[C@H](O)[C@@H]2O)cc(O)cc1[C@@H](C(=O)NCCCN(C)C)NC3=O,population PK model,paediatric patients,reference weight 70 kg,clearance,0.0578 L/h
Cn1cncc1-c1c(F)cncc1NC(=O)c1c(N)nn2cc(F)cnc12,population PK model,"patients with solid tumours, plasma","oral, dose not given",clearance change rate KCL,0.0878 h⁻¹
NC(=O)CC[C@@H]1NC(=O)[C@H](Cc2ccccc2)NC(=O)[C@H](Cc2ccc(O)cc2)NC(=O)CCSSC[C@@H](C(=O)N2CCC[C@H]2C(=O)N[C@H](CCCN=C(N)N)C(=O)NCC(N)=O)NC(=O)[C@H](CC(N)=O)NC1=O,,"mild haemophilia A patients and carriers, plasma","intravenous infusion over 30 min, 0.3 µg/kg, mean, noncompartmental",clearance,7.8 L/h
CC(C)C[C@H](NC(=O)[C@H](CCc1ccccc1)NC(=O)CN1CCOCC1)C(=O)N[C@@H](Cc1ccccc1)C(=O)N[C@@H](CC(C)C)C(=O)[C@@]1(C)CO1,"population PK, two-compartment model","adult relapsed/refractory DLBCL patients, plasma","intravenous infusion, dose not given, with: R-ICE",clearance,133 L/h
C[C@H]1Oc2cc(cnc2N)-c2c(nn(C)c2C#N)CN(C)C(=O)c2ccc(F)cc21,population PK,"patients with mild hepatic impairment (NCI sample B), plasma","oral, 100 mg, median, single dose",clearance,7.95 L/h

# Repeated from above:
SMILES,test,test system,conditions,measurement,result
Cn1cncc1-c1c(F)cncc1NC(=O)c1c(N)nn2cc(F)cnc12,population PK model,"patients with solid tumours, plasma","oral, dose not given",clearance change rate KCL,0.0878 h⁻¹
